# Experimental data from different studies.
# Each line is one published result; not all experiments were run side by side. Values joined by “and” are separate records of one study, mostly repeats; a detail may differ. ± marks the error that the study gave.
# U2AF2: U2AF2 148-342 (Homo sapiens, UniProt P26368)
# Chain of UniProt P26368 (whole entry, looked up): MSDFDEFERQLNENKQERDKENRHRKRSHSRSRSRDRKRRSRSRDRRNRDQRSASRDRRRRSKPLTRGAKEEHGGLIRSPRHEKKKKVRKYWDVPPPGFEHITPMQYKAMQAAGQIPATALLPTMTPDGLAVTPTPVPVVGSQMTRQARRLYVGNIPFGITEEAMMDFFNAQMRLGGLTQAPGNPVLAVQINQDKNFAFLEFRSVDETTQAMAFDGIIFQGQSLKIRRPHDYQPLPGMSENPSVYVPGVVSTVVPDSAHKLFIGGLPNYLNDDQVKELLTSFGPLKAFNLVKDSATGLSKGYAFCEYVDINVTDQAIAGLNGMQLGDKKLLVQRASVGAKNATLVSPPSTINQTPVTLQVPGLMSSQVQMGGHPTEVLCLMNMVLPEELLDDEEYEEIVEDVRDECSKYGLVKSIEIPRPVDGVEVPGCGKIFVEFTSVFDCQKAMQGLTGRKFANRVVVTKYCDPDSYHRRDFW
# B1: human CDK4; sequence looked up; chain ATSRYEPVAEIGVGAYGTVYKARDPHSGHFVALKSVRVPNGGGGGGGLPISTVREVALLRRLEAFEHPNVVRLMDVCATSRTDREIKVTLVFEHVDQDLRTYLDKAPPPGLPAETIKDLMRQFLRGLDFLHANCIVHRDLKPENILVTSGGTVKLADFGLARIYSYQMALTPVVVTLWYRAPEVLLQSTYATPVDMWSVGCIFAEMFRRKPLFCGNSEADQLGKIFDLIGLPPEDDWPRDVSLPRGAFPPRGPRPVQSVVPEMEESGAQLLLEMLTFNPHKRISAFRALQHSYLHKDEGNPE
# B2: E. coli DnaJ; chain MAKQDYYEILGVSKTAEEREIRKAYKRLAMKYHPDRNQGDKEAEAKFKEIKEAYEVLTDSQKRAAYDQYGHAAFEQGGMGGGGFGGGADFSDIFGDVFGDIFGGGRGRQRAARGADLRYNMELTLEEAVRGVTKEIRIPTLEECDVCHGSGAKPGTQPQTCPTCHGSGQVQMRQGFFAVQQTCPHCQGRGTLIKDPCNKCHGHGRVERSKTLSVKIPAGVDTGDRIRLAGEGEAGEHGAPAGDLYVQVQVKQHPIFEREGNNLYCEVPINFAMAALGGEIEVPTLDGRVKLKVPGETQTGKLFRMRGKGVKSVRGGAQGDLLCRVVVETPVGLNERQKQLLQELQESFGGPTGEHNSPRSKSFFDGVKKFFDDLTR
# B3: human hnRNP F; sequence looked up; chain MMLGPEGGEGFVVKLRGLPWSCSVEDVQNFLSDCTIHDGAAGVHFIYTREGRQSGEAFVELGSEDDVKMALKKDRESMGHRYIEVFKSHRTEMDWVLKHSGPNSADSANDGFVRLRGLPFGCTKEEIVQFFSGLEIVPNGITLPVDPEGKITGEAFVQFASQELAEKALGKHKERIGHRYIEVFKSSQEEVRSYSDPPLKFMSVQRPGPYDRPGTARRYIGIVKQAGLERMRPGAYSTGYGGYEEYSGLSDGYGFTTDLFGRDLSYCLSGMYDHRYGDSEFTVQSTTGHCVHMRGLPYKATENDIYNFFSPLNPVRVHIEIGPDGRVTGEADVEFATHEEAVAAMSKDRANMQHRYIELFLNSTTGASNGAYSSQVMQGMGVSAAQATYSGLESQSVSGCYGAGYSGQNSMGGYD
# B4: serpin B4 (human); sequence looked up; chain MNSLSEANTKFMFDLFQQFRKSKENNIFYSPISITSALGMVLLGAKDNTAQQISKVLHFDQVTENTTEKAATYHVDRSGNVHHQFQKLLTEFNKSTDAYELKIANKLFGEKTYQFLQEYLDAIKKFYQTSVESTDFANAPEESRKKINSWVESQTNEKIKNLFPDGTIGNDTTLVLVNAIYFKGQWENKFKKENTKEEKFWPNKNTYKSVQMMRQYNSFNFALLEDVQAKVLEIPYKGKDLSMIVLLPNEIDGLQKLEEKLTAEKLMEWTSLQNMRETCVDLHLPRFKMEESYDLKDTLRTMGMVNIFNGDADLSGMTWSHGLSVSKVLHKAFVEVTEEGVEAAAATAVVVVELSSPSTNEEFCCNHPFLFFIRQNKTNSILFYGRFSSP
# Chain of UniProt P29055 (whole entry, looked up): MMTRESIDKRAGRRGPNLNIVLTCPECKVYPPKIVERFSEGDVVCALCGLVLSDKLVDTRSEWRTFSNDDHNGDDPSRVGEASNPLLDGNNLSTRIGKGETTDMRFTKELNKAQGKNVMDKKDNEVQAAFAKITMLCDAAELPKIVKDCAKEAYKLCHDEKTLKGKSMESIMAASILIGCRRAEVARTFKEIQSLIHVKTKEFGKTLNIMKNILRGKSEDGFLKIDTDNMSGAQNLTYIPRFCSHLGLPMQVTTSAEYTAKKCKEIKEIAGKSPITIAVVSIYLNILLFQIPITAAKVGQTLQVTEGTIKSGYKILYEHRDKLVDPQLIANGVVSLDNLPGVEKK
Molecule,tested on,test,system,setting,scale,measurement,value
Malic enzyme 2 S121Q (human),,"enzyme activity, activator, NADH absorbance",recombinant enzyme,"range over 0 to 5 mM, pH 7.4",baseline: wild type,activation fold,0.9
AGUGGAGAACUUUUCUGCCUCUG (ssRNA),U2AF2,MST,RNA,,,Kd,29.7 ± 6.55 µM
GSGAGQITKV,"construct, MBP fusion, human SCRIB, PDZ 3-4",automated holdup,"peptide, crude extract","concentration not given, corrected by standard peak, unit not given","baseline: biotin control resin, higher = stronger binding",binding intensity,0.0282
B1 (human CDK4),PP6C (human),"co-immunoprecipitation, IP-MS",CYB5R4 knockout cells,concentration not given,baseline: CYB5R4 knockout over parental,log2 fold change,-0.66
VVVGAVGVGK,HLA-A*11:01 peptide-β2M single-chain trimer,"western blot, refers to: pMHC-I","peptide, 293T cells","24 h, unit not given, with: 100 µg/mL cycloheximide",baseline: time zero,remaining protein,0.835 and 0.863 and 0.901
DNA topoisomerase 2-beta (human),PP6C (human),"co-immunoprecipitation, IP-MS",CYB5R4 knockout cells,concentration not given,baseline: CYB5R4 knockout over parental,log2 fold change,0.43
QGRWDHETIV,"construct, MBP fusion, human SCRIB, PDZ 3-4",automated holdup,"peptide, crude extract","concentration not given, uncorrected, unit not given","baseline: biotin control resin, higher = stronger binding",binding intensity,0.143
CTCAGGAATTCCTACAAAGTAATGTGGAGCTCAGTTCAAGTCAATCGGTCC (dsDNA; 5'-amino-C6 primer),"SUA7 full length assumed (Saccharomyces cerevisiae, UniProt P29055)",array,"double-stranded DNA, one strand shown",TFIIB alone,,Kd,0.00145 ± 0.00063 µM
GSGAGHETIV,"construct, MBP fusion, human SCRIB, PDZ 3-4",automated holdup,"peptide, crude extract","concentration not given, corrected by standard peak, unit not given","baseline: biotin control resin, higher = stronger binding",binding intensity,0.198
human hnRNP K,PP6C (human),"co-immunoprecipitation, IP-MS",CYB5R4 knockout cells,concentration not given,baseline: CYB5R4 knockout over parental,log2 fold change,-0.92
methyl-β-cyclodextrin,"KCNH2 (Homo sapiens, UniProt Q12809)",whole-cell patch clamp,,"concentration not given, at -10 mV",,peak current density,41 ± 9.5 pA/pF
Peginesatide,ERK2 (MAPK1) human,"LC-MS/MS phosphoproteomics, refers to: ERK2 phosphotyrosine site 186",UT7/EPO,"10 nM, 15 min, with: EPO 10 U/mL",baseline: vehicle,phosphorylation fold change,46.2 fold
GSGAGKETEC,"construct, MBP fusion, human SCRIB, PDZ 3-4",surface plasmon resonance,peptide,concentration not given,higher = stronger binding,normalised SPR binding response,0 normalised RU
"FNA / CGLSGLGVA-NH2 ([18F]FNA-labelled, C-amide)",,gamma counting,"peptide, glioblastoma mice, Harderian glands","60 min, with: CooP blocking, 500-fold excess",,tissue uptake,0.3 %ID/g
colistin,Pseudomonas aeruginosa,,clinical isolate RKI 359/11,,,MIC,≤ 1 mg/L
B2 (E. coli DnaJ),DnaK (Escherichia coli) ATP-bound,"binding, fluorescence polarization",,"10 µM, 30 °C, with: ATP",,fraction bound,40.3%
KDECVIATEV,"construct, MBP fusion, human SCRIB, PDZ 3-4",surface plasmon resonance,peptide,concentration not given,higher = stronger binding,normalised SPR binding response,35.9 normalised RU
B3 (human hnRNP F),PP6C (human),"co-immunoprecipitation, IP-MS",CYB5R4 knockout cells,concentration not given,baseline: CYB5R4 knockout over parental,log2 fold change,-0.6
TTFFDYDYGA,CCL7 (human),"binding, nano-ESI mass spectrometry",peptide,"10 µM, pH 6.8",,association constant,10000 M⁻¹
(-)-epigallocatechin,Nrf2,"Nrf2 induction, inducer",,,baseline: control,fold induction,1 fold
VVVGASGVGK,HLA-A*11:01 peptide-β2M single-chain trimer,"western blot, refers to: pMHC-I","peptide, 293T cells","18 h, unit not given, with: 100 µg/mL cycloheximide",baseline: time zero,remaining protein,0.733 and 0.762 and 0.722
"phosphatidylinositol 4,5-bisphosphate",adenosine A2A receptor thermostabilised,equilibrium dialysis LC-MS,,"5 µM, normalised z-score",baseline: no protein,log2 fold change,0.56
Teicoplanin,,,QC solution,"6 months, -40 °C, low QC level",,recovery,93.8%
GGGUGGAUUUCUCAUGAA (ssRNA),U2AF2,MST,RNA,,,Kd,21.7 ± 2 µM
B4 (serpin B4),PP6C (human),"co-immunoprecipitation, IP-MS",CYB5R4 knockout cells,concentration not given,baseline: CYB5R4 knockout over parental,log2 fold change,0.46
human ME2 A65V mutant,,"enzyme activity, NADH absorbance",,"without fumarate, with: L-malate varied",,Hill coefficient,1.19 ± 0.07
PMESGICTIV,"construct, MBP fusion, human SCRIB, PDZ 3-4",automated holdup,"peptide, crude extract","concentration not given, uncorrected, unit not given","baseline: biotin control resin, higher = stronger binding",binding intensity,0.168
human G6PD,PP6C (human),"co-immunoprecipitation, IP-MS",CYB5R4 knockout cells,concentration not given,baseline: CYB5R4 knockout over parental,log2 fold change,-0.12

# Some of these lines once more:
Molecule,tested on,test,system,setting,scale,measurement,value
PMESGICTIV,"construct, MBP fusion, human SCRIB, PDZ 3-4",automated holdup,"peptide, crude extract","concentration not given, uncorrected, unit not given","baseline: biotin control resin, higher = stronger binding",binding intensity,0.168
human G6PD,PP6C (human),"co-immunoprecipitation, IP-MS",CYB5R4 knockout cells,concentration not given,baseline: CYB5R4 knockout over parental,log2 fold change,-0.12
